Experimental data collected from several papers.
± gives the spread as reported.

Structure (SMILES)	assay	system	setting	how to read	measurement	result
CC1(C)C(C=C(Cl)Cl)C1C(=O)OC(C#N)c1ccc(F)c(Oc2ccccc2)c1 (centres unmarked)	refers to: CYP2C19	human, age 1 year, recombinant human CYP2C19	0.1 µM	–	enzyme contribution to clearance	0.52%
Cn1cncc1-c1c(F)cncc1NC(=O)c1c(N)nn2cc(F)cnc12	–	human patients	oral, 80 mg once daily	–	grade ≥3 hyponatraemia incidence	0%
C[C@]1(O)C[C@@](N)(c2ccc(-c3nc4n(c3-c3ccccc3)COc3ccncc3-4)cc2)C1	–	human, advanced or metastatic solid tumours	16 mg once daily, phase I dose escalation	–	patients with Diarrhea TEAE	0%
O=C(O)CCCOc1ccc(F)cc1-c1cc(-c2ccccc2C(F)(F)F)n(-c2ccccc2)n1	refers to: thyroid	Crl:CD(SD) rats, female	iv, 25 µg/kg, 1 day	–	organ weight	17 ± 1.8 mg
COc1ccc(C[C@@H]2NC(=O)[C@H]([C@@H](C)O)NC(=O)[C@@H]3[C@@H]4CCN3C(=O)[C@@H]3Cc5cn(c6ccc(F)cc56)CCCCCCN(Cc5ccc(cc5)CCNC(=O)[C@]5(C)CCCN5C2=O)C(=O)CCC(=O)N[C@@H](C)C(=O)N[C@H](CNC(=O)CCCCC[N+](C)(C)C)C(=O)N[C@@H](Cc2cccc(c2)CNC(=O)CO4)C(=O)N3)cc1	refers to: Dizziness	humans	concentration not given, Study-003	–	participants with adverse event	6.5%
Cc1cnc(N2CC3(CCOCC3)C2)c(C(=O)Nc2ccc(C(=O)N3CCc4cc(C(=O)Nc5c(C)cccc5F)sc4-c4ccccc43)cc2)c1	–	dog, plasma	inhaled, 0.9 mg/kg	relative to: intravenous	bioavailability	~15%
CC(=O)c1c(C)c2cnc(Nc3ccc(C4CCN(CCS(C)(=O)=O)CC4)cn3)nc2n(C2CCCC2)c1=O	–	human, plasma	oral, 75 mg, day 1 single dose	–	Vd	1490 L
Cn1ncc(-c2nc(N[C@H]3CC[C@H](N)CC3)ncc2Cl)c1CC1CC1	refers to: anemia any grade	human patients phase I	dose not given	–	adverse event incidence	37%
COc1ccnc(C(=O)N[C@H]2COC(=O)[C@H](Cc3ccccc3)[C@@H](OC(=O)C(C)C)[C@H](C)OC2=O)c1OCOC(=O)C(C)C	survival, growth, reproduction	Pimephales promelas, flow-through water	concentration not given, 32 days	–	NOEC	0.37 µg/L
CC/C(=C(\c1ccccc1)c1ccc(OCCN(C)C)cc1)c1ccccc1	–	CD-1 mouse, male, plasma	intraperitoneal, 1 mg/kg	–	half-life	18.7 h
CCCCCCC#Cc1cncc(-c2nnc(SCc3cc([N+](=O)[O-])cc([N+](=O)[O-])c3)n2C)c1	–	mouse plasma	plasma stability	–	t1/2	> 8 h
COc1cc2c(Oc3ccc4[nH]c(C)cc4c3F)ccnc2cc1OCC1(N)CC1	–	paediatric recurrent refractory sarcoma	8 mg	–	grade 1 or 2 Anorexia	0%
C[C@]1(CO)Cc2ncn(-c3ccc(C#N)c(Cl)c3)c2C(=O)O1	–	human, plasma	40 mg single dose, geometric mean	–	Cmax	1.37 µM
CO[C@H]1C[C@@H]2CC[C@@H](C)[C@@](O)(O2)C(=O)C(=O)N2CCCC[C@H]2C(=O)O[C@H]([C@H](C)C[C@@H]2CC[C@@H](OC(=O)NCCOCCOCCOCCOCCOCCOCCOCCOCCC(=O)N3CCc4cc(Cn5nc(-c6ccc7oc(N)nc7c6)c6c(N)ncnc65)ccc4C3)[C@H](OC)C2)C[C@@H](O)[C@H](C)/C=C(\C)[C@@H](O)[C@@H](OC)C(=O)[C@H](C)C[C@H](C)/C=C/C=C/C=C/1C	–	patients with advanced solid tumours	intravenous, 16 mg weekly, grade 3 or higher	–	AE leading to discontinuation	25%

Some of these lines once more:
Structure (SMILES)	assay	system	setting	how to read	measurement	result
COc1ccc(C[C@@H]2NC(=O)[C@H]([C@@H](C)O)NC(=O)[C@@H]3[C@@H]4CCN3C(=O)[C@@H]3Cc5cn(c6ccc(F)cc56)CCCCCCN(Cc5ccc(cc5)CCNC(=O)[C@]5(C)CCCN5C2=O)C(=O)CCC(=O)N[C@@H](C)C(=O)N[C@H](CNC(=O)CCCCC[N+](C)(C)C)C(=O)N[C@@H](Cc2cccc(c2)CNC(=O)CO4)C(=O)N3)cc1	refers to: Dizziness	humans	concentration not given, Study-003	–	participants with adverse event	6.5%
